# Results collected from several papers.
# Sequences of proteins named here, by UniProt entry; tags and fusion partners are left off. Residues count along the entry.
# UniProt P14902, whole entry: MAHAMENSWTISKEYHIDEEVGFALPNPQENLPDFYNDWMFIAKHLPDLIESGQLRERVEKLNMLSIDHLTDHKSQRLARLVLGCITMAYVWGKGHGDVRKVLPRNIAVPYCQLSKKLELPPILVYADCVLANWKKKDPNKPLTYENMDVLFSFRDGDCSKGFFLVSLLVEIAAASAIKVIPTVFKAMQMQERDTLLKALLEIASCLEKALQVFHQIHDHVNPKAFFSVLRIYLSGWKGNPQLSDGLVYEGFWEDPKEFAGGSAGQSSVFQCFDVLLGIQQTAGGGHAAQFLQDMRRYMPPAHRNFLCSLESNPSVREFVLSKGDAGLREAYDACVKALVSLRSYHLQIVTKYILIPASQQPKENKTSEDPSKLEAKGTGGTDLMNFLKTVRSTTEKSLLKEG
# UniProt P05067, whole entry, looked up: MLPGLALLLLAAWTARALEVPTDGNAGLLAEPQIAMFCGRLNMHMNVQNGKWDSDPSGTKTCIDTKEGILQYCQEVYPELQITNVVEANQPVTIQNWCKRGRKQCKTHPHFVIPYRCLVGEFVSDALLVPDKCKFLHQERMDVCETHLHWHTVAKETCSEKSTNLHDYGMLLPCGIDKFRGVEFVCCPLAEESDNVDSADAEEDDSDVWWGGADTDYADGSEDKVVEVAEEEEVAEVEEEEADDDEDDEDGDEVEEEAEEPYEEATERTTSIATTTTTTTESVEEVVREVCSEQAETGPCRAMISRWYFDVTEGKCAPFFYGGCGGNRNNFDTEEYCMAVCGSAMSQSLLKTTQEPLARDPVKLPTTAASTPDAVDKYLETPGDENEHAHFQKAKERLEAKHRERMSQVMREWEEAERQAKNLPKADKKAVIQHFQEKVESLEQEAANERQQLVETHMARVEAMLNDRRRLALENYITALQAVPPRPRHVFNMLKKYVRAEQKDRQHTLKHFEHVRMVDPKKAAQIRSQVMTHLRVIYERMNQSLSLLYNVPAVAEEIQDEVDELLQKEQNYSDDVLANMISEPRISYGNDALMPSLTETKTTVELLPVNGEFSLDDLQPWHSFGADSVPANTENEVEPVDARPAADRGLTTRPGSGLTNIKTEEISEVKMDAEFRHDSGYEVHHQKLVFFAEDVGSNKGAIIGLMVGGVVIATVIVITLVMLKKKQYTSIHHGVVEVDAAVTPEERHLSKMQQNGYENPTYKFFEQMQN
# UniProt P05067, 672-713 limits assumed: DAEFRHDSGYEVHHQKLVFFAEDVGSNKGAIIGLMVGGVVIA
# UniProt P31749, whole entry: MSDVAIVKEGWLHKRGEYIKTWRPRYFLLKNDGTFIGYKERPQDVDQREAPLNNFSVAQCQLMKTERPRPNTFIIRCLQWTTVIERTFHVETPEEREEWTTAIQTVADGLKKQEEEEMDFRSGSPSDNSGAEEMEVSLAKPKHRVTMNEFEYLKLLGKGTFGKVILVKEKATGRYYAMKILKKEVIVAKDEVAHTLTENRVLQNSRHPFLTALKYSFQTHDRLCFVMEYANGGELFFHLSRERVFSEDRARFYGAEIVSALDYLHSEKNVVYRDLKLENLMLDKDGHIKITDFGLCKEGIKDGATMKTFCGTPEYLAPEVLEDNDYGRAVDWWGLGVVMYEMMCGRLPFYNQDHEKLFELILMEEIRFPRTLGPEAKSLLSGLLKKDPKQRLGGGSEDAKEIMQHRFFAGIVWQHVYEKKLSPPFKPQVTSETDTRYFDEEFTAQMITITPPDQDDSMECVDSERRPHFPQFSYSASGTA
# UniProt P03372, whole entry: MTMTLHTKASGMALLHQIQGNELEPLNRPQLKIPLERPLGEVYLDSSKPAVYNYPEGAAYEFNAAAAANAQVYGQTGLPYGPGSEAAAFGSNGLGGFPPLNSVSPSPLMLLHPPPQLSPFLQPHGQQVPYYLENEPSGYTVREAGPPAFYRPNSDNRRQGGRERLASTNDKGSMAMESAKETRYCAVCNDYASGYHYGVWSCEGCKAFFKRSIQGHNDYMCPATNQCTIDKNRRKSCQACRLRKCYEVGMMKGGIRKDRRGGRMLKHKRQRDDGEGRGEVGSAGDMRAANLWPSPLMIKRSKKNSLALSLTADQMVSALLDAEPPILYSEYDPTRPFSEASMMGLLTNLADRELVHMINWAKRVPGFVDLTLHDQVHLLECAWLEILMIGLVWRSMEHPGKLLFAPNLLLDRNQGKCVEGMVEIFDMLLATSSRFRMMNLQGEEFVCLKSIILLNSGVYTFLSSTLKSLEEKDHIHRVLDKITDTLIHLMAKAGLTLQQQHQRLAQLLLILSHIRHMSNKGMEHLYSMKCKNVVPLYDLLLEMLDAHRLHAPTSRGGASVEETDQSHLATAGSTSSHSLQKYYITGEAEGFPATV
# UniProt P03372, 311-547 limits assumed: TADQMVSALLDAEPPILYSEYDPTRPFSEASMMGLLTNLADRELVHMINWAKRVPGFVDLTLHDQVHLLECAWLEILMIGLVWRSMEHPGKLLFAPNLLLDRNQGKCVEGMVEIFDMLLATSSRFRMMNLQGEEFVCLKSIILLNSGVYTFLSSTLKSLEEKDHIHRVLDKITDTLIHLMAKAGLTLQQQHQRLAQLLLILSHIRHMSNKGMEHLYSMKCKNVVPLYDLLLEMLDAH
# UniProt P23219, 24-599 limits assumed: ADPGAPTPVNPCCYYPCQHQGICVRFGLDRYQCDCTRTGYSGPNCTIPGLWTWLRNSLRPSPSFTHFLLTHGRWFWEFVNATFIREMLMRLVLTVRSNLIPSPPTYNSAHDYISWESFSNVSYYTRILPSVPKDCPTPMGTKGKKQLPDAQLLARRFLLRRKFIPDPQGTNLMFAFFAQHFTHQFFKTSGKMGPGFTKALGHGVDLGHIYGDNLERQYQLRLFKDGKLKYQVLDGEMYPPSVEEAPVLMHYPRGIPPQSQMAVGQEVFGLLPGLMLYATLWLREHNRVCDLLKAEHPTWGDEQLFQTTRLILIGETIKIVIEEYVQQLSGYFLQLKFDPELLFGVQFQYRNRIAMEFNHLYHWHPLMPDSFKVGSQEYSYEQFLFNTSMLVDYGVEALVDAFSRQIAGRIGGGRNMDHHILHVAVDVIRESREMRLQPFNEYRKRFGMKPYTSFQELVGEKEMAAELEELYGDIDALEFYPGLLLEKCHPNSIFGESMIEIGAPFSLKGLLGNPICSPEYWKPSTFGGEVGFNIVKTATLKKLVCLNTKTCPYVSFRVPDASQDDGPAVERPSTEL
# UniProt Q13304, whole entry: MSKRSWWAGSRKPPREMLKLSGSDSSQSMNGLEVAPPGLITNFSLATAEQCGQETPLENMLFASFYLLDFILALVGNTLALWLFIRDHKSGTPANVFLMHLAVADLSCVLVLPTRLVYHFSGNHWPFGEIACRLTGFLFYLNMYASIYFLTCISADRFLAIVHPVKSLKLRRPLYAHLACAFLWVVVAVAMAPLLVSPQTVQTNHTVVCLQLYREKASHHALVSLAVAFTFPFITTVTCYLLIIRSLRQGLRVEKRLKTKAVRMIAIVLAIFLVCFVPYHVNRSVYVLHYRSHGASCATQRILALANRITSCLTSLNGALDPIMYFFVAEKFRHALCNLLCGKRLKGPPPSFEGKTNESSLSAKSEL
# UniProt O00748, 27-559 limits assumed: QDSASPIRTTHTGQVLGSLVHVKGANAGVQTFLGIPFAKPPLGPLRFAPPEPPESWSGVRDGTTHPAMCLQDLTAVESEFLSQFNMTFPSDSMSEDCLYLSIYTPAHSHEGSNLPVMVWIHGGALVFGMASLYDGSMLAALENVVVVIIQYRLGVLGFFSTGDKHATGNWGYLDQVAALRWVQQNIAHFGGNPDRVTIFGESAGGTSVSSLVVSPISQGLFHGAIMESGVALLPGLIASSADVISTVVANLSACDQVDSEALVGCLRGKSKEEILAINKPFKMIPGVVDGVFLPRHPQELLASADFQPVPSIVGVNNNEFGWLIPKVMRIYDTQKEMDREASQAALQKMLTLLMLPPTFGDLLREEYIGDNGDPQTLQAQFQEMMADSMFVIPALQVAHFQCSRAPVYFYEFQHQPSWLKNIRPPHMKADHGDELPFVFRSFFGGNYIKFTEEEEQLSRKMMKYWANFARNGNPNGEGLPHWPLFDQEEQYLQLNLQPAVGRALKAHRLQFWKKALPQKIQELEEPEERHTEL
# UniProt P46116, whole entry: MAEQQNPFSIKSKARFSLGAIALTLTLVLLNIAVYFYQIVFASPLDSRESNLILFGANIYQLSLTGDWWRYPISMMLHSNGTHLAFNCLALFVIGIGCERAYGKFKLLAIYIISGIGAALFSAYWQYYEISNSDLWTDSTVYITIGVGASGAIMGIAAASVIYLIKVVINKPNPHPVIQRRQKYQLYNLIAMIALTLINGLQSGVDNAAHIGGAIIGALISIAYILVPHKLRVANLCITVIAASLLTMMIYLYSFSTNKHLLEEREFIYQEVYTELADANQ
# UniProt P28065, whole entry, looked up: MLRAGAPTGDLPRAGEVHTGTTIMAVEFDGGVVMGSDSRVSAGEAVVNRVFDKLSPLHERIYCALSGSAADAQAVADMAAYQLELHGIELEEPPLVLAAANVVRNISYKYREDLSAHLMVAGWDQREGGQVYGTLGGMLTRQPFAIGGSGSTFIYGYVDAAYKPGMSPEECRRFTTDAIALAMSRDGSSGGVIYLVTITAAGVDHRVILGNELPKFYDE
# UniProt P40306, whole entry, looked up: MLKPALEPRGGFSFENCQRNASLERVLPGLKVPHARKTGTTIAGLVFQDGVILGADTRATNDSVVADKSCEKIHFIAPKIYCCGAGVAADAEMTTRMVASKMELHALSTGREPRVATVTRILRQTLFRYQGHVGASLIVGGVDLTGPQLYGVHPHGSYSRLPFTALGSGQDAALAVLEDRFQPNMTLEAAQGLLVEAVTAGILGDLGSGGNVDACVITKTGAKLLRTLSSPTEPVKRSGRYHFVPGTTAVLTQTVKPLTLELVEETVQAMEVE
# UniProt P29466, whole entry, looked up: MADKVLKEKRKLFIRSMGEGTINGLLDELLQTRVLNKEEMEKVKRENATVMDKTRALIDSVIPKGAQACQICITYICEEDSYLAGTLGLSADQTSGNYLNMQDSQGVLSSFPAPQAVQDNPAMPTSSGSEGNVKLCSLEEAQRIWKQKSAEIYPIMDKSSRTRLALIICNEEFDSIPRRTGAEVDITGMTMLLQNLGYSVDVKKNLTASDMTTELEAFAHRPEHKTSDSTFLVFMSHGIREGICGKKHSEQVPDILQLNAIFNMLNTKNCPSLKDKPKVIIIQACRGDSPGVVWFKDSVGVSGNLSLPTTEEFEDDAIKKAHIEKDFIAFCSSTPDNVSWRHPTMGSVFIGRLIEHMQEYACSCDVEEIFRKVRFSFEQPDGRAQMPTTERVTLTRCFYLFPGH
# UniProt Q86WJ1, 16-612 limits assumed: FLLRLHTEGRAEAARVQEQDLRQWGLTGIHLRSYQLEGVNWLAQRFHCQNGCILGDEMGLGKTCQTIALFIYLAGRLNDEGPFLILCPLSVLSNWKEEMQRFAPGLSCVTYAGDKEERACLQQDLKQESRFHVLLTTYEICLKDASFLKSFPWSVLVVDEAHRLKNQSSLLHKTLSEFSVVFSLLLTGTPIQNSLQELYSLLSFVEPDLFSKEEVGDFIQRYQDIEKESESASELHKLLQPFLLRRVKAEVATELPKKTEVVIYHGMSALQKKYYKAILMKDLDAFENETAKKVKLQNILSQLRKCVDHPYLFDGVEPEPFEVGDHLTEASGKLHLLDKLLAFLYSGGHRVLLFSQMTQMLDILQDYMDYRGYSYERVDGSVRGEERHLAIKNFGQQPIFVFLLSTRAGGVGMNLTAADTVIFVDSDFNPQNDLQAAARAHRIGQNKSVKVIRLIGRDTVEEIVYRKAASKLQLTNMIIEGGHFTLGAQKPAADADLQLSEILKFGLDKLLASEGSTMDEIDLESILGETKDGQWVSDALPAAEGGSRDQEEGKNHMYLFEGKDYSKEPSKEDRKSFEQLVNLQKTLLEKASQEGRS
# UniProt O14757, whole entry: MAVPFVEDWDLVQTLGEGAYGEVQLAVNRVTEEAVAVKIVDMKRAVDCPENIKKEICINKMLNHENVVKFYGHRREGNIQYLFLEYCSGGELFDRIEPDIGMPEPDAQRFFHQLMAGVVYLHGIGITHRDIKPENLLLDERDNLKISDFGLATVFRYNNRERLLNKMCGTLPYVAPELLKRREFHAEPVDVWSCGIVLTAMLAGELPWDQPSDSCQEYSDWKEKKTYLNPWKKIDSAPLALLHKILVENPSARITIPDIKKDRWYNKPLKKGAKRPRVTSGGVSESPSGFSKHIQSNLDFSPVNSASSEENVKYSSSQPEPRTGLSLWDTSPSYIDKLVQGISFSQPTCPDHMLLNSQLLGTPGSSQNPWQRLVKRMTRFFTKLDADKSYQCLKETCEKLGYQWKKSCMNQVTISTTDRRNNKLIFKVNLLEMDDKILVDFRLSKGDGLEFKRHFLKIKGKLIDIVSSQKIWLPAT
# UniProt Q99685, whole entry: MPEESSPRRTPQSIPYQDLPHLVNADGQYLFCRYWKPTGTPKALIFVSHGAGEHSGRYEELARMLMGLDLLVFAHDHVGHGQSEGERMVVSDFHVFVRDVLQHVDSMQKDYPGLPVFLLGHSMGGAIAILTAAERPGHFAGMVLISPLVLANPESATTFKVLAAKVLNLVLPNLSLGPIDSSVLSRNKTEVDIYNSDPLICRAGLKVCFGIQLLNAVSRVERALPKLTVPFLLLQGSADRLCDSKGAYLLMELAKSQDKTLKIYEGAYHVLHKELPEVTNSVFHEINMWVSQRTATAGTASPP
# Numbers after ± are the reported error.
# IDO1: Indoleamine 2,3-dioxygenase 1 (IDO1, Homo sapiens, UniProt P14902)
# APP amyloid-beta peptide: Amyloid-beta precursor protein, amyloid-beta peptide (APP, Homo sapiens, UniProt P05067)
# Grm2: Metabotropic glutamate receptor 2 (Grm2, Rattus norvegicus, UniProt P31421)
# AKT1: RAC-alpha serine/threonine-protein kinase (AKT1, Homo sapiens, UniProt P31749)
# Moesin with CD44: Moesin, with CD44 (Homo sapiens, UniProt P26038)
# ESR1: Estrogen receptor (ESR1, Homo sapiens, UniProt P03372)
SMILES,target or system,test,system,conditions,measurement,result
COc1ccc(-c2nc(C(F)(F)F)nn2-c2ccc(OC)nc2)cc1,"Prostaglandin G/H synthase 1 (PTGS1, Homo sapiens, UniProt P23219)","thromboxane B2 production, inhibitor, enzyme immunoassay",human whole blood,,IC50,0.004 ± 0.0059 µM
CN(C)C(=O)Cn1cc(-c2ccc(-c3cncc4ccncc34)cc2)cn1,"Cyclin-dependent kinase 19 (CDK19, Homo sapiens, UniProt Q9BWU1)","enzyme activity, SelectScreen",,,IC50,< 1 µM
N#Cc1ccc2[nH]cc(/C=C/c3ccccc3)c2c1,IDO1,"enzyme activity, inhibitor",,,IC50,1.6 µM
Cc1cc(O)c(C(=O)/C=C/c2cc(C(=O)O)cc3c2OCOC3)cc1C,"Protein disulfide-isomerase (P4HB, Homo sapiens, UniProt P07237)","reductase activity, inhibitor, insulin aggregation",,,IC50,64 µM
CN1CC[C@H](c2c(O)cc(O)c3c(=O)cc(-c4ccccc4F)oc23)[C@H](O)C1,"Cyclin-dependent kinase 7 (CDK7, Homo sapiens, UniProt P50613)",,,ATP at Km,IC50,> 10 µM
N=C(N)NCCC[C@H](NC(=O)c1cc(C(=O)O)cc([C@H]2CCN[C@@H]2C(=O)O)c1)C(=O)O,AMPA receptor (rat),"binding, radioligand binding",rat cortical synaptosomes,together with: [3H]AMPA,IC50,10 µM
COc1ccc(Nc2nc(-c3sc(N)nc3C)cs2)cc1,"Protein-lysine 6-oxidase (Homo sapiens, UniProt P28300)","LOX activity, inhibitor",MDA-MB-231,,IC50,7.5 µM
COc1ccc2c(Nc3ccc(NC(=O)c4ccc(C)cc4)c(O)c3)ccnc2c1,"Serine/threonine-protein kinase N3 (PKN3, Homo sapiens, UniProt Q6P5Z2)","binding, split-luciferase",,,IC50,11 µM
OCC1C(O)C(O)C(O)CN1CC(F)(F)CCCOCc1ccc(-c2ccccc2)cc1 (centres unmarked),"Ceramide glucosyltransferase (Ugcg, Mus musculus, UniProt O88693)","inhibitor, C6-NBD-ceramide in situ",RAW264.7,,IC50,0.02 µM
COC(=O)CCCC(C(=O)/C=C/c1ccc(O)c(OC(F)(F)F)c1)C(=O)/C=C/c1ccc(O)c(OC(F)(F)F)c1,"Amyloid-beta precursor protein, Aβ aggregates (APP, Homo sapiens, UniProt P05067)","binding, thioflavin T competition",,,IC50,0.35 µM
CC(=O)N1CCN(c2ccc(Nc3ncc4c(n3)N(C)C(=O)N(c3cc(NC(=O)c5cccc(C(F)(F)F)c5)ccc3C)C4)cn2)CC1,"Fibroblast growth factor receptor 4 (FGFR4, Homo sapiens, UniProt P22455)","enzyme activity, inhibitor, radiometric kinase",,,IC50,< 0.001 µM
CCOC(=O)c1ccc(-c2nc(C)c(CSc3ccc(OCC(=O)O)c(C)c3)s2)cc1,HEK293T,,,18 h,CC50,> 80 µM
N#Cc1ccc2[nH]cc(/C=C/c3cccc([N+](=O)[O-])c3)c2c1,APP amyloid-beta peptide,"Aβ42 oligomerisation, ELISA",,,IC50,11.7 µM
CC[C@H](N)c1nc2cc(-c3ccncc3F)sc2c(=O)[nH]1,"Cell division cycle 7-related protein kinase (CDC7, Homo sapiens, UniProt O00311)","enzyme activity, inhibitor",,,IC50,0.0296 ± 0.00118 µM
COc1ccc(-c2cc(C(F)(F)F)c(C#N)c(SCC(=O)Nc3ccc(C)cc3)n2)cc1,"Trace amine-associated receptor 1 (TAAR1, Homo sapiens, UniProt Q96RJ0)",,,,IC50,> 10 µM
NC(=O)c1cn(-c2ccc(F)cc2)c2ccc(NCCc3ccncc3)cc2c1=O,Grm2,"calcium mobilization, negative allosteric modulator",,,IC50,0.376 µM
Cc1ccc2oc(-c3c4c(N)n[nH]c(=O)c4nn3-c3ccc(Cl)cc3)c(C)c2c1,"Fibroblast growth factor receptor 1 (FGFR1, Homo sapiens, UniProt P11362)","kinase activity, inhibitor, ELISA",,,IC50,0.0324 ± 0.0062 µM
Nc1cc(-c2ccc(C3(c4ccc(Cl)cc4)CCNCC3)cc2)ccn1,AKT1,"kinase activity, inhibitor, radiometric HotSpot",,together with: ATP 10 µM,IC50,0.038 µM
O=C(Nc1ccc(-c2nc3ccccc3[nH]2)cc1)C1CCCC1,Moesin with CD44,"MSN-CD44 interaction, inhibitor, TR-FRET",,together with: CD44,IC50,> 100 µM
Cc1nc(-c2ccc(-c3csc(-c4cnccc4C(F)(F)F)n3)cc2)no1,"ALK tyrosine kinase receptor (ALK, Homo sapiens, UniProt Q9UM73)",ELISA,,,IC50,40 µM
CC(C)(CO)c1nc(-c2cccc(Nc3ncnn4ccc(CN5CCC(N)CC5)c34)c2)no1,"AP2-associated protein kinase 1 (AAK1, Homo sapiens, UniProt Q2M2I8)",,,,IC50,0.015 µM
O=C(CCCCCn1c(=S)[nH]c2ccccc2c1=O)N1CCN(c2ccc(Cl)c(Cl)c2)CC1,ESR1,"reporter gene, antagonist",HEC-1 cells transfected with ERα,together with: estradiol 1 nM,IC50,4.2 µM
COc1cccc(C(=O)Nc2ccc(-c3nc4ccc(NC(=O)c5cccc(OC)c5)cc4s3)cc2)c1,"Tyrosine-protein kinase SYK, with FCER1G (SYK, Homo sapiens, UniProt P43405)","protein binding, inhibitor, TR-FRET",,,IC50,> 100 µM
COc1ccc2[nH]cc(/C=C/c3ccncc3)c2c1,IDO1,"enzyme activity, inhibitor",,,IC50,> 50 µM
NC(N)=NN=C1CCCc2cc(NC(=O)c3cc4cccc([N+](=O)[O-])c4[nH]3)ccc21,"Serine/threonine-protein kinase Chk2 (CHEK2, Homo sapiens, UniProt O96017)","kinase activity, inhibitor, IMAP fluorescence polarization",,,IC50,0.00017 ± 1e-05 µM
CCC(C)N1c2ccccc2C(=O)Nc2cnc(Nc3ccc(C(=O)N4CCC(N5CCN(C)CC5)CC4)cc3OC)nc21 (centres unmarked),"Mitogen-activated protein kinase 7 (MAPK7, Homo sapiens, UniProt Q13164)",kinase activity,,,IC50,> 10 µM
COc1ccc(N2CC(=O)C(c3nc(C)cs3)=C2N)c(OC)c1,tetrapod ancestral FSP1,"enzyme activity, resazurin reduction",,"100 µM resazurin, together with: 200 µM NADH",IC50,0.081 µM
COc1ccc(C(=O)Nc2ccc(-c3nc4ccccc4[nH]3)cc2)cc1,Moesin with CD44,"MSN-CD44 interaction, inhibitor, TR-FRET",,together with: CD44,IC50,8 µM
CN1CCc2cc(Nc3ncn(C)c(=O)c3Cl)ccc2C1,"Nucleosome-remodeling factor subunit BPTF, bromodomain (BPTF, Homo sapiens, UniProt Q12830)","target engagement, inhibitor, NanoBRET displacement",HEK293T,,IC50,1.4 ± 0.2 µM
CS(=O)(=O)Nc1cccc(/C=C/c2c[nH]c3ccc(C#N)cc23)c1,IDO1,"enzyme activity, inhibitor",,,IC50,4.8 µM
CC(C)CNC(=O)CSc1nc2ccc(NC(=O)CSc3ccc(C(F)(F)F)cc3)cc2s1,ESR1,"reporter gene, antagonist",HEC-1 transfected ERα luciferase reporter,,IC50,17 µM
C[C@H](NC(=O)c1cc(C(=O)O)cc([C@H]2CCN[C@@H]2C(=O)O)c1)C(=O)O,"Glutamate receptor ionotropic, NMDA 2C, with GluN1 (Rattus norvegicus, UniProt Q00961)","ion current, antagonist, two-electrode voltage clamp",Xenopus oocytes,"GluN1/GluN2C, together with: glycine 100 µM and glutamate 1 µM",IC50,11.6 ± 0.62 µM
COC(C)(C)Cn1nc(-c2ccc3cc(OC4CC4)ccc3c2)c2c(N)ncnc21,"Proto-oncogene tyrosine-protein kinase Src (SRC, Homo sapiens, UniProt P12931)","enzyme activity, inhibitor, Kinase-Glo",,,IC50,> 10 µM
O=C(Nc1ccc(Br)c(F)c1)C(NS(=O)(=O)c1cccs1)c1ccccc1 (centres unmarked),"Uracil nucleotide/cysteinyl leukotriene receptor, long isoform (GPR17, Homo sapiens, UniProt Q13304)","calcium mobilization, antagonist",1321-N1,,IC50,11.7 ± 0.26 µM
CCCCCN(C)C(=O)Oc1ccccc1C=C1Cc2cc(OC)c(OC)cc2C1=O,"Cocaine esterase (CES2, Homo sapiens, UniProt O00748)",intracellular enzyme activity,HepG2,"1 h, together with: fluorogenic substrate 10 µM",IC50,0.00685 µM
COc1ccc2c3c(cccc13)C(=O)N(C)C2=O,"Rhomboid protease AarA (Providencia stuartii, UniProt P46116)","inhibitor, fluorogenic peptide substrate",,,IC50,13.6 µM
O=C(NCc1ccc(Cl)cc1)[C@@H]1C[C@@H](O)CN1C(=O)c1cccc(-c2ccccc2)c1,"von Hippel-Lindau disease tumor suppressor, with elongin B, C (VHL, Homo sapiens, UniProt P40337)","binding, fluorescence polarization",,"10% DMSO, together with: FAM-HIF1α peptide tracer",IC50,33 ± 4 µM
CN1CCC[C@@H]1C(=O)N[C@@H](Cc1ccccc1)B(O)O,"Proteasome subunit beta type-9 / Proteasome subunit beta type-10 (Homo sapiens, UniProt P28065+P40306)","β1i enzyme activity, inhibitor",,together with: Ac-PAL-AMC,IC50,0.18 µM
COc1cc([C@@H]2c3cc4c(cc3C=C(C=O)[C@H]2C(=O)OCCCCCCBr)OCO4)cc(OC)c1OC,"Tubulin alpha/beta heterodimer (Leishmania infantum, UniProt A0A381MCS3+A4HTR0)","tubulin polymerization, inhibitor",,"37 °C, together with: tubulin 1.2 mg/mL",IC50,7 ± 0.7 µM
COc1ccc2[nH]cc(/C=C/c3ccc(NS(C)(=O)=O)cc3)c2c1,APP amyloid-beta peptide,"Aβ42 oligomerisation, ELISA",,,IC50,5.4 µM
COc1cccc(-c2cc(-n3nncc3-c3ccc(C(F)(F)F)cc3)ccc2OC)c1,"Heat shock protein HSP 90-alpha, with Aha1 (HSP90AA1, Homo sapiens, UniProt P07900)","Hsp90-Aha1 interaction, inhibitor, AlphaScreen",,,IC50,4.69 ± 0.4 µM
FC(F)(F)c1ccc(CCN2CCN(c3cc(N4CCCC4)nc(N4CCCC4)n3)CC2)cc1,"Caspase-1 (CASP1, Homo sapiens, UniProt P29466)","enzyme activity, inhibitor",,"30 min preincubation, together with: Ac-WEHD-AMC 10 µM",IC50,0.013 µM
Clc1ccc(C2(c3ccc(-c4ncnc5[nH]cnc45)cc3)CCNCC2)cc1,AKT1,"kinase activity, inhibitor, radiometric HotSpot",,together with: ATP 10 µM,IC50,0.038 µM
N#Cc1ccccc1N1CCN(C(=O)CCCCCCCn2c(=S)[nH]c3ccccc3c2=O)CC1,ESR1,"reporter gene, coactivator binding inhibitor, luciferase reporter",HEC-1 cells transfected with ERα,"significant cytotoxicity, together with: estradiol 1 nM",IC50,2.7 µM
CN1CC[C@H](c2c(O)cc(O)c3c(=O)cc(-c4ccc(Cl)cc4)oc23)[C@H](O)C1,"Cyclin-dependent kinase 9, with cyclin T1 (CDK9, Homo sapiens, UniProt P50750)",inhibitor,,"with cyclin T1, GST-CTD substrate",IC50,0.0123 µM
Nc1nonc1-n1cc(C(=O)N/N=C/c2cccs2)nn1,"NAD-dependent protein deacylase sirtuin-6 (SIRT6, Homo sapiens, UniProt Q8N6T7)","deacetylase activity, inhibitor, Fluor de Lys",,together with: Ac-RHKK(Ac)-AMC substrate,IC50,35.6 ± 9.03 µM
O=C(Cc1ccccc1)N1CCN(S(=O)(=O)c2ccc3[nH]c(=O)oc3c2)CC1,"Nucleotide triphosphate diphosphatase NUDT15 (NUDT15, Homo sapiens, UniProt Q9NV35)","enzyme activity, inhibitor, malachite green",,together with: dGTP,IC50,11.1 µM
Cn1ccnc1SCC(=O)Nc1ccc2nc(SCC(=O)NC3CC3)sc2c1,"Estrogen receptor, ligand-binding domain; with SRC-3 (ESR1, Homo sapiens, UniProt P03372)","coactivator binding, TR-FRET",,together with: SRC-3 fragment,IC50,> 50 µM
Cc1ccccc1OCCCSCc1nc2ccccc2[nH]1,"Chromodomain-helicase-DNA-binding protein 1-like (CHD1L, Homo sapiens, UniProt Q86WJ1)","ATPase activity, inhibitor",,"1 h, 37 °C, together with: ATP 10 µM",IC50,2.29 µM
O=C(NO)c1ccc(F)cc1,"Protein deacetylase HDAC6 (HDAC6, Homo sapiens, UniProt Q9UBN7)","enzyme activity, inhibitor, electrophoretic mobility shift",,together with: FAM-RHKK(Ac)-NH2 1 µM,IC50,0.321 µM
CC(=NNC(=N)N)c1ccc(NC(=O)c2c[nH]c3ccccc23)cc1,"Serine/threonine-protein kinase Chk1 (CHEK1, Homo sapiens, UniProt O14757)","kinase activity, inhibitor, IMAP fluorescence polarisation",,60 min,IC50,> 100 µM
NC(=O)c1cn(-c2ccc(F)cc2)c2ccc(OCc3cccnc3)cc2c1=O,Grm2,"calcium mobilization, negative allosteric modulator",,,IC50,0.895 µM
O=C(OC(C(F)(F)F)C(F)(F)F)N1CC[C@@H](OC(c2ccc(F)cc2)c2ccc(F)cc2)C1,"Monoglyceride lipase (MGLL, Homo sapiens, UniProt Q99685)","inhibitor, fluorescence",,together with: AHMMCE substrate,IC50,1.34 ± 0.103 µM
C1=C(CCNCc2ccccc2)CCCC1,"Phenylalanine--tRNA ligase, mitochondrial (Homo sapiens, UniProt O95363)","phenylalanine activation, inhibitor",,human enzyme,IC50,> 300 µg/mL
O=C(c1ccc(O)c(Cl)c1)N1Cc2ccccc2C1,"Heat shock protein HSP 90-alpha (HSP90AA1, Homo sapiens, UniProt P07900)","binding, fluorescence polarization",,together with: FITC-geldanamycin tracer,IC50,4.69 ± 0.27 µM
COc1cc2nc3ccccc3c(SCCCN)c2cc1OC,"Serine/threonine-protein kinase haspin (HASPIN, Homo sapiens, UniProt Q8TF76)","inhibitor, TR-FRET",,together with: histone H3 peptide,IC50,~7 µM

# Excerpt of the above:
SMILES,target or system,test,system,conditions,measurement,result
O=C(Nc1ccc(Br)c(F)c1)C(NS(=O)(=O)c1cccs1)c1ccccc1 (centres unmarked),"Uracil nucleotide/cysteinyl leukotriene receptor, long isoform (GPR17, Homo sapiens, UniProt Q13304)","calcium mobilization, antagonist",1321-N1,,IC50,11.7 ± 0.26 µM
NC(=O)c1cn(-c2ccc(F)cc2)c2ccc(OCc3cccnc3)cc2c1=O,Grm2,"calcium mobilization, negative allosteric modulator",,,IC50,0.895 µM
CC(C)(CO)c1nc(-c2cccc(Nc3ncnn4ccc(CN5CCC(N)CC5)c34)c2)no1,"AP2-associated protein kinase 1 (AAK1, Homo sapiens, UniProt Q2M2I8)",,,,IC50,0.015 µM
CC[C@H](N)c1nc2cc(-c3ccncc3F)sc2c(=O)[nH]1,"Cell division cycle 7-related protein kinase (CDC7, Homo sapiens, UniProt O00311)","enzyme activity, inhibitor",,,IC50,0.0296 ± 0.00118 µM
CN1CC[C@H](c2c(O)cc(O)c3c(=O)cc(-c4ccccc4F)oc23)[C@H](O)C1,"Cyclin-dependent kinase 7 (CDK7, Homo sapiens, UniProt P50613)",,,ATP at Km,IC50,> 10 µM
